Published values from different studies.
Each line is one published result; not all experiments were run side by side. “And” joins repeats or separate records; there may be more than shown. ± gives the spread as reported.

Compound | tested on | test | test system | conditions | how to read | measurement | result
COc1c(O)c(C)cc2c1C(=O)c1c(cc(O)c(O)c1O)C2=O | HK-2 co-cultured with HepaRG | MTT | – | 133.33 µM, 24 h | relative to: untreated control | viability | 94.1 ± 11.9%
COc1cccc2c1C(=O)c1c(O)c3c(c(O)c1C2=O)C[C@@](O)(C(=O)CO)C[C@@H]3O[C@H]1C[C@H](N)[C@H](O)[C@H](C)O1 | – | MTT | normal colonocytes, rat | 72 h | – | maximum non-toxic concentration | 225 ± 18 nM
C=CC[C@@H]1/C=C(\C)C[C@H](C)C[C@H](OC)[C@H]2O[C@@](O)(C(=O)C(=O)N3CCCC[C@H]3C(=O)O[C@H](/C(C)=C/[C@@H]3CC[C@@H](O)[C@H](OC)C3)[C@H](C)[C@@H](O)CC1=O)[C@H](C)C[C@@H]2OC | – | – | rhesus monkey kidney transplant, kidney allograft | dose not given | direction not given | Banff i score | 0
CC(C)(C)c1cc(C(C)(C)C)c(NC(=O)c2c[nH]c3ccccc3c2=O)cc1O | – | – | isolated rat colon | 1 nM to 10 µM | – | contraction amplitude | no effect
O=C(O)CNC(=O)Cc1ccccc1 | – | – | ventricular cardiomyocytes, C57BL/6 mouse | dose not given, 0.78 s | – | sarcomere length | 1.72 µm
Cc1cn(-c2cc(NC(=O)c3ccc(C)c(Nc4nccc(-c5cccnc5)n4)c3)cc(C(F)(F)F)c2)cn1 | – | measured: DOPAC | human, cerebrospinal fluid | dose not given, between 12 and 6 months, unit not given | relative to: placebo | median difference in change | 0.12
Cn1cc(-c2ccc(-c3cncc(Cl)c3N3CCC4(CCNC4=O)CC3)cc2)cn1 | COLO 205 | microarray, measured: FLOT1 | – | concentration not given, 6 h, gene set Flotillin-1 | relative to: untreated cells | fold change in expression | 1.12
Cc1cc(F)cc2c(CCC(=O)N[C@@H]3C(=O)NC[C@H]3O)c(-c3ccc(F)cc3)[nH]c12 | – | proteinuria, measured: UACR AUC(0-48 h) | APOL1 G2 multicopy mice | oral, 30 mg/kg twice daily, together with: IFNγ intraperitoneal | relative to: vehicle | reduction | 95%
Cc1cnc(N2CC3(CCOCC3)C2)c(C(=O)Nc2ccc(C(=O)N3CCc4cc(C(=O)Nc5c(C)cccc5F)sc4-c4ccccc43)cc2)c1 | – | measured: CRP | human RSV infection, plasma | dose not given, AUC, ITT-IS population | relative to: placebo | inhibition | 16%
Cc1ccc(C(=O)Nc2ccnc(S(N)(=O)=O)c2)c(N2CCCC(F)(F)CC2)n1 | – | – | Macaca mulatta, C-nociceptors | intravenous, 0.6 mg/kg bolus then 0.8 mg/kg/h, 30 min | – | activity-dependent slowing | 85.5 ± 2.63 % baseline
NCC(=O)Nc1cncc(-c2nn3c(=O)cc(N4CCNCC4)nc3s2)c1 | – | ADP-induced platelet aggregation, light transmission aggregometry | human, stable CAD on aspirin, platelets ex vivo | subcutaneous, 0.075 mg/kg, 120 min post-dose, together with: ADP 20 µM | – | median inhibition | 27.6%
CCN1CCN(Cc2ccc(Nc3ncc(F)c(-c4cc(F)c5nc6n(c5c4)[C@H](C)CCC6)n3)nc2)CC1 | – | – | human advanced solid tumours | 200 mg, phase Ia monotherapy RECIST 1.1 | – | non-CR/non-PD | 0%
OC(CCN1CCCCC1)(c1ccccc1)C1CC2C=CC1C2 (centres unmarked) | – | resting-state EEG | healthy elderly humans | oral, 4 mg, eyes open, LS mean | relative to: baseline | change, Gamma power, EEG Pz-O1 | -2.8%
O=C1Nc2cc3[nH]nc(-c4ccncc4)c3cc2CN1Cc1ccccc1 | – | RECIST v1.1 | human, relapsed or refractory advanced solid tumours | intravenous, 6.4 mg/kg | – | complete response, best response | 0%
Cc1cc([C@H]2C[C@H]3[C@@H](C)SC(N)=N[C@@]3(c3ccc(F)cc3F)CO2)on1 | – | measured: Aβx-42 | Mus musculus wild-type, brain | subcutaneous, 50 mg/kg, 9 h | – | Aβ42 level | 0.24 ng/g
C[C@H]1O[C@@H](O[C@H]2CC[C@@]3(C)[C@@H](CC[C@]4(C)[C@@H]3C=C[C@]35OC[C@@]6(CCC(C)(C)C[C@H]63)[C@@H](O)C[C@]54C)[C@]2(C)CO)[C@H](O)[C@@H](O[C@@H]2O[C@H](CO)[C@@H](O)[C@H](O)[C@H]2O)[C@H]1O | – | Western blot, measured: caspase3 | mice, normal control diet, liver | dose not given, high dose, unit not given | relative to: β-actin | protein level | 0.35 and 0.217 and 0.328

Compound | tested on | test | test system | conditions | how to read | measurement | result
c1ccc(-c2n[nH]cc2-c2ccnc3ccccc23)nc1 | – | kinase binding, competitor, MIB/MS competition, measured: NPR1 | Candida albicans cell lysate | 10 µM | relative to: DMSO | log2 fold change | 1.4
N#Cc1ccc2c(c1)[C@H]1CCCN(C(=O)c3ccc4[nH]cnc4c3)[C@H]1C2 | – | measured: Triglycerides | human | 80 mg once daily, day 28, adjusted mean | relative to: placebo | change from baseline | -17.2 mg/dL
Cc1n[nH]c2ccc(-c3cc(OC[C@@H](N)Cc4ccccc4)cnc3-c3ccoc3)cc12 | – | kinase binding, competitor, MIB/MS competition, measured: HST7 | Candida albicans cell lysate | 10 µM | relative to: DMSO | log2 fold change | -1.68
CC1(C)CCC2(CC1)N[C@@H](C(=O)N[C@@H]1CC[C@@H](C(N)=O)OC1)[C@H](c1ccnc(Cl)c1F)[C@]21C(=O)Nc2cc(Cl)ccc21 | – | – | human, solid tumours | 120 mg/day, RECIST | relative to: patients | non-evaluable patients | 33.3%
CN(C)/N=N/c1[nH]cnc1C(N)=O | THP-1 | pyroptotic LDH release | – | 2 µM, 40 min, together with: LPS then nigericin | – | inhibition | -3.09%
CC(C)NCC(O)c1ccc(O)c(O)c1 (centres unmarked) | – | – | ventricular cardiomyocytes, C57BL/6 mouse | dose not given, 0.236 s | – | sarcomere length | 1.55 µm
CC(C)c1c(C(=O)Nc2ccccc2)c(-c2ccccc2)c(-c2ccc(F)cc2)n1CC[C@@H](O)C[C@@H](O)CC(=O)O | – | – | cynomolgus monkey, female, serum | 40 mg/kg or 25 mg/kg, day 176, 4224 h | – | LDL-C | 74.7 mg/dL
COc1cc2cc(-c3ccc(CC(=O)Nc4cc(C(C)(C)C(F)(F)F)no4)cn3)cnc2cc1OC | – | RECIST v1.1 | human other RET-altered solid tumours | 75 mg, phase I | – | best overall response CR | 0%
NC[C@H]1O[C@H](O[C@H]2[C@H](O)[C@@H](O[C@H]3O[C@H](CO)[C@@H](O)[C@H](N)[C@H]3O)[C@H](N)C[C@@H]2N)[C@H](O)[C@@H](O)[C@@H]1O | THP-1 | pyroptotic LDH release | – | 2 µM, 40 min, together with: LPS then nigericin | – | inhibition | 6.33%
N=C(N)NCCC[C@H](NC(=O)[C@H](CCCNC(=N)N)NC(=O)[C@H](CCCCN)NC(=O)[C@H](CCC(N)=O)NC(=O)[C@H](CCCCN)NC(=O)[C@H](Cc1ccc(O)cc1)NC(=O)[C@@H](N)CCCCN)C(=O)N[C@@H](CO)C(=O)N[C@@H](Cc1ccc(O)cc1)C(=O)N[C@@H](CCCCN)C(=O)O | – | – | human, dentin hypersensitivity patients | topical to tooth, 5 µg/tooth repeated, day 36, phase 1/2a trial, higher-VAS tooth, together with: cold water at 4°C | direction not given | change in VAS score | -29.4 ± 27.7 mm
CCOCc1nc(O)c(-c2nnc(Cc3ccc(Cl)cn3)o2)c(O)c1-c1c(OC)cccc1OC | – | – | instrumented anaesthetised rat | intravenous infusion, 10 µg/kg/min for 15 min, 15 min | relative to: baseline | dP/dtmax change | 13.4 ± 1.6%
C[C@H]1C[C@H]2CSC(N)=N[C@@]2(c2nc(NC(=O)c3ccc(OC(F)F)cn3)cs2)CO1 | – | measured: Aβx-40 | healthy adults, plasma | 160 mg single dose, 4 h post-dose | relative to: placebo | percent change from baseline | -45.4%
N#Cc1ccn2c(-c3ccncc3)c(-c3ccc(F)cc3)nc2c1 | – | kinase binding, competitor, MIB/MS competition, measured: IRE1 | Candida albicans cell lysate | 1 µM | relative to: DMSO | log2 fold change | -0.527
CC(C)[C@H](C(=O)Nc1ccc(C(=O)NO)cc1)c1ccccc1 | – | volumetric MRI | human, right C1 intradural meningioma | dose not given, day 809 | – | tumour growth rate | 10 %/year
CN[C@@H]1COc2c(S(=O)(=O)NC(=O)Nc3c4c(cc5c3CCC5)CCC4)cnn2C1 | – | measured: IL-1β | human participants, whole blood ex vivo | 1800 mg single dose, 72 h, together with: LPS/ATP | relative to: baseline | inhibition | 45.9%
COc1c(O)c(C)cc2c1C(=O)c1c(O)cccc1C2=O | HK-2 co-cultured with HepaRG | MTT | – | 66.67 µM, 24 h | relative to: untreated control | viability | 77.1 ± 14%

Some of these lines once more:
Compound | tested on | test | test system | conditions | how to read | measurement | result
COc1cccc2c1C(=O)c1c(O)c3c(c(O)c1C2=O)C[C@@](O)(C(=O)CO)C[C@@H]3O[C@H]1C[C@H](N)[C@H](O)[C@H](C)O1 | – | MTT | normal colonocytes, rat | 72 h | – | maximum non-toxic concentration | 225 ± 18 nM
C=CC[C@@H]1/C=C(\C)C[C@H](C)C[C@H](OC)[C@H]2O[C@@](O)(C(=O)C(=O)N3CCCC[C@H]3C(=O)O[C@H](/C(C)=C/[C@@H]3CC[C@@H](O)[C@H](OC)C3)[C@H](C)[C@@H](O)CC1=O)[C@H](C)C[C@@H]2OC | – | – | rhesus monkey kidney transplant, kidney allograft | dose not given | direction not given | Banff i score | 0
